Measurements collected from several papers.
Values joined by “and” are separate records of one study, mostly repeats; a detail may differ. ± gives the spread as reported.
TOP2A: DNA topoisomerase 2-alpha (TOP2A, Homo sapiens, UniProt P11388)
Sequence of UniProt P11388 (whole entry, looked up): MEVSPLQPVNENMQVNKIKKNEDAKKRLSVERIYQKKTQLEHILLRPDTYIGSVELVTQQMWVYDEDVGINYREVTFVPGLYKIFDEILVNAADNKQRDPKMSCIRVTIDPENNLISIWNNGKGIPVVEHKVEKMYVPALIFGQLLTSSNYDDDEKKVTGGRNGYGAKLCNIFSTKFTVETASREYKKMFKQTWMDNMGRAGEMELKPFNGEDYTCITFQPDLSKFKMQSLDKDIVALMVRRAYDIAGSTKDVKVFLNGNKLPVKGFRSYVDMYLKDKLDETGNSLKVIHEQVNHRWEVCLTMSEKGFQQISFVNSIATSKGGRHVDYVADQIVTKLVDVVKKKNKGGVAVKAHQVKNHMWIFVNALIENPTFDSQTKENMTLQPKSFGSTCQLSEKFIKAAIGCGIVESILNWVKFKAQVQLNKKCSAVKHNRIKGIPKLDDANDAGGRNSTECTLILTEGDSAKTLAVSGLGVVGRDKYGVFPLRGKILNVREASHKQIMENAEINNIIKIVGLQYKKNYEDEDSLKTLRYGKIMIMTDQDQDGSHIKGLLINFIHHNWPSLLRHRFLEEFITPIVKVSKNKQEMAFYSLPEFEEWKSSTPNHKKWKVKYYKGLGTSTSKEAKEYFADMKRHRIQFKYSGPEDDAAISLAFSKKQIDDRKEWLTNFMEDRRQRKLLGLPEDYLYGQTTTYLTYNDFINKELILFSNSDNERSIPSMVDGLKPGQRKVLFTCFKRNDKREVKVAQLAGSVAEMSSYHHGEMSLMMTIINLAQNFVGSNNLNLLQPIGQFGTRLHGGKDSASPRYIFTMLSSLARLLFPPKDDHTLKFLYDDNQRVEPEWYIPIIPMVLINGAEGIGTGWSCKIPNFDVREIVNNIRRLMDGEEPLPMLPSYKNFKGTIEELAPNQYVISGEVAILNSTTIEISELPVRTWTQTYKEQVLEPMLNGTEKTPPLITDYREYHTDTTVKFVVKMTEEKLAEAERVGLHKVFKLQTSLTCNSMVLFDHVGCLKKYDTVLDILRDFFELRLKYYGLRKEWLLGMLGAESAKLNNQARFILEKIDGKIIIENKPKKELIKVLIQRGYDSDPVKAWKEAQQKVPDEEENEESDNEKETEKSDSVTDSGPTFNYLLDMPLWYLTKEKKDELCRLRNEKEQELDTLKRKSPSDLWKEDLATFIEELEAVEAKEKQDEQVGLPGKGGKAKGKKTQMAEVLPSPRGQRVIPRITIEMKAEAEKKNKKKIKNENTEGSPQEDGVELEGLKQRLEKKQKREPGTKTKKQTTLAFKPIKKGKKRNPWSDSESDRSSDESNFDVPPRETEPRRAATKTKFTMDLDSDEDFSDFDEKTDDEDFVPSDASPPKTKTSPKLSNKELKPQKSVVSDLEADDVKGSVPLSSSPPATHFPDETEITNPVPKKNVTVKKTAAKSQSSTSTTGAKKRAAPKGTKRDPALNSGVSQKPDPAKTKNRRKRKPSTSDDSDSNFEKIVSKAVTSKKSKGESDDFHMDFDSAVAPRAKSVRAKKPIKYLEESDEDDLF
uncharacterized protein: uncharacterized protein (Spodoptera exigua, UniProt F1CEY0)
ALB: Albumin (ALB, Homo sapiens, UniProt P02768)
Sequence of UniProt O00206 (whole entry, looked up): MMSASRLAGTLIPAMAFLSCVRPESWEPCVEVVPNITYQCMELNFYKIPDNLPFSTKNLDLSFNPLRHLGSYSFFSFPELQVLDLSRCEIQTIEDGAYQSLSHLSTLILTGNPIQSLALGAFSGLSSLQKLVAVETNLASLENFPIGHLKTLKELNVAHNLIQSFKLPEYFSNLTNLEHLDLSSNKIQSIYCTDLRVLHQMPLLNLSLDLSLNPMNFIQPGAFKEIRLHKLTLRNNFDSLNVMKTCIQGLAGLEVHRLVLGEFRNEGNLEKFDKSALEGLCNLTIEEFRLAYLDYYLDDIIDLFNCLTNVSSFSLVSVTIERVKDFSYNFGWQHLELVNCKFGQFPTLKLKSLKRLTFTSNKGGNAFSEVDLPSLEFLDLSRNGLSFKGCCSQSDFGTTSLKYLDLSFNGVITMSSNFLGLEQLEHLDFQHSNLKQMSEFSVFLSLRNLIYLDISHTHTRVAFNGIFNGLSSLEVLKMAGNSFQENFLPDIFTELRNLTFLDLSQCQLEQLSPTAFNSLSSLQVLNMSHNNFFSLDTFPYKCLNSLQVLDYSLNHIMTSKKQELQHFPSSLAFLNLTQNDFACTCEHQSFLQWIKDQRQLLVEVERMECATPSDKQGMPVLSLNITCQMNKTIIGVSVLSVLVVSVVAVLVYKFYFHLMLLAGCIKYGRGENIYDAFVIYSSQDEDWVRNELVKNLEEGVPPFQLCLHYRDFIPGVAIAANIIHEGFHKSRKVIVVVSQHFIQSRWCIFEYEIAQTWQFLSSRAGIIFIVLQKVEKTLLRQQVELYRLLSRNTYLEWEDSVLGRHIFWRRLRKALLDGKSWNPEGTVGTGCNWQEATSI
Sequence of UniProt O76090 (whole entry, unmodified, looked up): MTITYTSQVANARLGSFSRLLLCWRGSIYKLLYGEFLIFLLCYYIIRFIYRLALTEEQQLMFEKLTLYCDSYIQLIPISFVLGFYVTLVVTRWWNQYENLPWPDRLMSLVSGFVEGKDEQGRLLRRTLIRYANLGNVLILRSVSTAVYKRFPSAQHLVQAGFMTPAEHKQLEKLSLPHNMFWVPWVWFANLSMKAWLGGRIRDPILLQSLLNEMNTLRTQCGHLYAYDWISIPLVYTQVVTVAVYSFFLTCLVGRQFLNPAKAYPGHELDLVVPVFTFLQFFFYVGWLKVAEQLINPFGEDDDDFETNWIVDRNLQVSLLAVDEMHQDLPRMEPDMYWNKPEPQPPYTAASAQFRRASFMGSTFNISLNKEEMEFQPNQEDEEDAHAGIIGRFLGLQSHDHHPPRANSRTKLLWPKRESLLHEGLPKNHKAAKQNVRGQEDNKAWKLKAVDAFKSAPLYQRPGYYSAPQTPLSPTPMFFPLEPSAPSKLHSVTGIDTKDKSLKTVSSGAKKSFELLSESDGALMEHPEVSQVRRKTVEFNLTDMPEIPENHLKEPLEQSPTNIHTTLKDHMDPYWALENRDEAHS
Sequence of UniProt P51575 (whole entry, unmodified, looked up): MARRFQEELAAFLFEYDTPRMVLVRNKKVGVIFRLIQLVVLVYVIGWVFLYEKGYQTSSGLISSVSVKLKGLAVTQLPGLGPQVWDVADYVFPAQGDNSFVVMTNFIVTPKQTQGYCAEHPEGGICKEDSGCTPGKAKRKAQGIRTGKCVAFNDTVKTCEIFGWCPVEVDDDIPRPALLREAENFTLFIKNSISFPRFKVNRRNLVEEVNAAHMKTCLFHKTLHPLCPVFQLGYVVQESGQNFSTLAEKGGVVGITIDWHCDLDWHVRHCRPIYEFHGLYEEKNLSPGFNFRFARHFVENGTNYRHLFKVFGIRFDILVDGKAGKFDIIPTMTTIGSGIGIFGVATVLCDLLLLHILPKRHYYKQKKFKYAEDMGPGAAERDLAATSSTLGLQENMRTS
Sequence of UniProt Q13258 (whole entry, unmodified, looked up): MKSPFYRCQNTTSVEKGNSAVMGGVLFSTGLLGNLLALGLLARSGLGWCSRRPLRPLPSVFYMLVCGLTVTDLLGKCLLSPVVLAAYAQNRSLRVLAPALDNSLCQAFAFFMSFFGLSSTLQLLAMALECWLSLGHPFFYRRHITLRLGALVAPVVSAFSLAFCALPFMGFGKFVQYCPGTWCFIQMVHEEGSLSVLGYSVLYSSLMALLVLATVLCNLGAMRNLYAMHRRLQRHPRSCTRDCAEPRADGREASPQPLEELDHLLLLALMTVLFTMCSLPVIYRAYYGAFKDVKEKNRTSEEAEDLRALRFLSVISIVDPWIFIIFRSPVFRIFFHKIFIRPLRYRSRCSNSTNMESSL
Sequence of UniProt P70536 (whole entry, looked up): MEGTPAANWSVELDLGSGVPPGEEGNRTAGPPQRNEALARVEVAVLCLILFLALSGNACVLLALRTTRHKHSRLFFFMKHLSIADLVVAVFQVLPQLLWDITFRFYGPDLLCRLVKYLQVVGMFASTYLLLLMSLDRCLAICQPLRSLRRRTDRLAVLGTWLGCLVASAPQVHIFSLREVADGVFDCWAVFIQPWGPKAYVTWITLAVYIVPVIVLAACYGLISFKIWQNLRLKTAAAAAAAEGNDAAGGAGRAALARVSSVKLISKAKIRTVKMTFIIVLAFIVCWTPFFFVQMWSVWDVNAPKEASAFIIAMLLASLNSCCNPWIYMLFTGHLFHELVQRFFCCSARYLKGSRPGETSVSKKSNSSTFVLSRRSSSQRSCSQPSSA
Sequence of UniProt Q16774 (whole entry, unmodified, looked up): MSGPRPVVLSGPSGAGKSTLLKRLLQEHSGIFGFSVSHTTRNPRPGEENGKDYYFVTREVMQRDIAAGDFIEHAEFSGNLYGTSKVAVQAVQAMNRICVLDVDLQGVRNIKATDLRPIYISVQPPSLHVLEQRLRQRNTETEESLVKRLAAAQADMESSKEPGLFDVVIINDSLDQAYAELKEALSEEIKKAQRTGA

Cc1nc(CSc2nc(SCc3ccc(C(C)C)cc3)nc(=O)[nH]2)cs1 — decatenated DNA (TOP2A; DNA decatenation, inhibitor, gel-based decatenation; 1.95 µM): 99.8%
OCCc1ccccc1 — relative fluorescence (uncharacterized protein; binding, competitor, fluorescence displacement; 20 µM, pH 7.4, with: 1-NPN 20 µM; baseline: 1-NPN alone): 71.2%
CCCCC[C@H](O)/C=C/[C@H]1C(=O)C[C@H](O)[C@@H]1C/C=C\CCCC(=O)O — Emax (PTGDR (Homo sapiens, UniProt Q13258, R332A); agonist): 89 ± 9%
CC(=O)Nc1ccc(O)cc1 — chemical shift change (BRD4 (Homo sapiens, UniProt O60885); 19F NMR, measured: tyrosine 65; 375 µM; baseline: free protein): -0.018 ppm
CC[C@H](C)[C@@H]1NC(=O)[C@H](C(C)C)NC(=O)[C@H](C(C)C)NC(=O)[C@H](CC(C)C)NC(=O)C[C@@H](C(=O)N[C@@H](Cc2c[nH]c3ccccc23)C(=O)N[C@@H](CC(N)=O)C(=O)N[C@@H](C)C(=O)N2CCC[C@H]2C(=O)NCC(=O)N[C@@H](Cc2c[nH]c3ccccc23)C(=O)N[C@@H](Cc2ccc(O[C@@H]3O[C@H](CO)[C@@H](O)[C@H](O)[C@H]3O)cc2)C(=O)O)NC(=O)[C@H](C)NC(=O)[C@H](CCC(N)=O)NC(=O)[C@H](C(C)C)NC1=O — OD450 in LPS binding ELISA (TLR4 (Homo sapiens, UniProt O00206); antagonist, ELISA; 1 µg/mL, with: LPS; baseline: DMSO control, lower means stronger antagonism): 0.42 a.u. and 0.4 a.u. and 0.404 a.u. and 0.419 a.u.
O=c1cc(CO)occ1[O-].[Cl-].[W+4].c1cc[cH-]c1.c1cc[cH-]c1 — Stern-Volmer quenching constant (ALB; fluorescence quenching; 317 K): 14100 L/mol
CC1(F)CN(C(=O)Cn2c(=O)c(C(=O)NCc3ccc(Cl)cc3)cc3nc(N4CCNC4=O)cnc32)C1 — Hill slope (DNA polymerase catalytic subunit (Human cytomegalovirus, UniProt P08546); enzyme activity, inhibitor; retest): 0.9
CC[C@H](C)[C@@H]1NC(=O)[C@H](Cc2ccc(O)cc2)NC(=O)[C@@H](N)CSSC[C@@H](C(=O)N2CCC[C@H]2C(=O)N[C@@H](CC(C)C)C(=O)NCC(N)=O)NC(=O)[C@H](CC(N)=O)NC(=O)[C@H](CCC(N)=O)NC1=O — dissociation half-life (Oxytocin receptor (Rattus norvegicus, UniProt P70536); rat lactating mammary cells; with: 1 µM compound): 16 min
CC[C@H](C)[C@H](NC(=O)[C@H](CCCCN)NC(=O)[C@@H](NC(=O)[C@H](CCCCN)NC(=O)[C@H](CCCCN)NC(=O)CNC(=O)[C@H](CO)NC(=O)[C@H](C)NC(=O)[C@@H](NC(=O)[C@H](Cc1c[nH]cn1)NC(=O)[C@H](Cc1ccccc1)NC(=O)CN)[C@@H](C)O)C(C)C)C(=O)N[C@@H](C)C(=O)N[C@@H](CCCCN)C(=O)N[C@@H](CCC(=O)O)C(=O)N[C@@H](CO)C(=O)N[C@@H](CC(C)C)C(=O)N[C@@H](CC(=O)O)C(=O)N[C@@H](CCCCN)C(=O)N[C@H](C(=O)N[C@@H](CCCCN)C(=O)N[C@@H](CC(N)=O)C(=O)N[C@@H](Cc1ccccc1)C(=O)N[C@@H](Cc1ccccc1)C(=O)O)C(C)C — ΔS (human RAD51 F86E monomer; ITC; pH 7.4, 25 °C, 5 µM protein): -14 cal/mol/K
CC[C@@H](C)[C@@H](NC(=O)[C@@H](Cc1ccc(O)cc1)NC(=O)[C@H]1CCCN1C(=O)[C@@H](CCCNC(=N)N)NC(=O)[C@H](N)Cc1c[nH]cn1)C(=O)N[C@H](C)C(=O)N[C@H](Cc1c[nH]cn1)C(=O)N[C@H](CCCNC(=N)N)C(=O)N[C@@H](C(=O)N[C@H](Cc1ccc(O)cc1)C(=O)N[C@H](CO)C(=O)N[C@H](Cc1ccccc1)C(N)=O)C(C)C — surface TFRC expression (Transferrin receptor protein 1 (Tfrc, Mus musculus, UniProt Q62351); flow cytometry; RAW264.7; 48 h, pH 7.4, unit not given; baseline: 0 h): 0.963
COc1ccc(-c2cc(OCC(=O)N(C)Cc3cccnc3C)nc(-n3nc(C)cc3C)n2)cc1 — trimming of SIINFEKL precursors (LNPEP (Homo sapiens, UniProt Q9UIQ6); peptide trimming, inhibitor, HPLC; up to 50 µM, 1 h, 37 °C, with: 40 µM peptide, 20 nM IRAP): no effect
O=c1nc(SCc2ccc(C(F)(F)F)cc2)nc(SCc2csc3ccc(Cl)cc23)[nH]1 — relaxed DNA (TOP2A; DNA relaxation; 1.95 µM, replicate 2): 95.9%
CC1CCCN(C(=O)c2cc3ncccn3n2)C1 (stereo not shown) — fold enrichment (DNA mismatch repair protein Msh6 (Homo sapiens, UniProt P52701); binding, affinity selection mass spectrometry; baseline: other proteins in batch): 0.833
Nc1ccc(C(=O)O)cc1 — current density (BEST1, with wild-type BEST1 (Homo sapiens, UniProt O76090, D302A); ion current, whole-cell patch clamp; HEK293 co-expressing mutant and wild-type; concentration not given, voltage 0 mV): -0.28 pA/pF and 0.02 pA/pF and -0.15 pA/pF and -0.03 pA/pF and -0.07 pA/pF
N[C@@H](Cc1ccc(O)cc1)C(=O)Nc1ccc2ccccc2c1 — kcat (Puromycin-sensitive aminopeptidase (Rattus norvegicus, UniProt F1M9V7); substrate; MW 100 kDa): 18.7 s⁻¹
CCCCC[C@@H]1NC(=O)[C@@H]2CCCN2C(=O)[C@H](CC(=O)O)NC(=O)[C@H](Cc2ccc(O)cc2)NC(=O)[C@H](CO)NC(=O)[C@H]([C@@H](C)CC)NC(=O)[C@H](Cc2ccc(-c3ccccc3)cc2)NC(=O)[C@H](CC(C)C)NC(=O)[C@@H]2CCCN2C(=O)[C@@H](NC(=O)[C@H](CCCNC(=N)N)NC(=O)[C@H](CCCNC(=N)N)NC(C)=O)CSSC[C@@H](C(=O)N[C@@H](CCCNC(=N)N)C(=O)N[C@@H](CCCNC(=N)N)C(N)=O)NC1=O — lowest bound protein concentration (GTPase KRas, GDP-bound (KRAS, Homo sapiens, UniProt P01116, G12D); affinity selection mass spectrometry; mixture library 4, with: protein titration up to 2.5 µM; lower is stronger binding): 0.04 µM
CCCCCCCCCCCCC — relative fluorescence (uncharacterized protein; binding, competitor, fluorescence displacement; 20 µM, pH 7.4, with: 1-NPN 20 µM; baseline: 1-NPN alone): 75.8%
N[C@H](CNC(=O)c1cc(Br)c(-c2ccccc2F)s1)C(=O)O — Hill slope (Glutamate receptor ionotropic, NMDA 1, with GluN2A (Grin1, Rattus norvegicus, UniProt P35439); with: glutamate 300 µM): 1.48
c1coc(-c2n[nH]cc2-c2ccnc3ccccc23)c1 — log2 fold change (Aurora kinase (IPL1, Candida albicans, UniProt Q59S66); kinase binding, MIB/MS competition; Candida albicans lysate; 1 µM; baseline: DMSO, negative = stronger binding): -0.25
Nc1ncnc2c1ncn2[C@@H]1O[C@H](COP(=O)(O)CP(=O)(O)OP(=O)(O)O)[C@@H](O)[C@H]1O — specific binding (P2X purinoceptor 1 (P2RX1, Homo sapiens, UniProt P51575, R139A); saturation binding; HEK293; 52 nM): 2100 CCPM and 3210 CCPM
O=C(O)c1ccc(Nc2ncc3c(n2)-c2ccc(Cl)cc2C(c2c(F)cccc2F)=NC3)cc1 — remaining activity (FGFR2(h); kinase activity; 1 µM): 52%
C=CC(=O)N1CCC(COCC(=O)N2CCN(c3nc(-c4cnc(N)nc4C(F)F)nc(N4CCOC[C@@H]4C)n3)CC2)CC1 — remaining binding (Ribosomal protein S6 kinase alpha-6, N-terminal kinase domain (RPS6KA6, Homo sapiens, UniProt Q9UK32); KINOMEscan; 1 µM; baseline: DMSO control): 84%
Nc1ncnc2c1ncn2[C@@H]1O[C@H](CO[P@](=O)(O)O[P@](=O)(O)O[P@@](=O)(O)S)[C@@H](O)[C@H]1O — ΔH (GUK1 (Homo sapiens, UniProt Q16774); binding, isothermal titration calorimetry; molar ratio 1.741, fitted curve): -0.581 kcal/mol
c1ccc(-c2n[nH]cc2-c2ccnc3ccccc23)nc1 — log2 fold change (Carbon catabolite-derepressing protein kinase (SNF1, Candida albicans, UniProt P52497); kinase binding, competitor, MIB/MS competition, measured: SNF1; Candida albicans cell lysate; 100 nM; baseline: DMSO): 0.946
CC(=O)N[C@H]1[C@@H](OP(=O)(O)OP(=O)(O)OC[C@H]2O[C@@H](n3ccc(=O)[nH]c3=O)[C@H](O)[C@@H]2O)O[C@H](CO)[C@@H](O)[C@@H]1O — Km (Bacillus thuringiensis ThuS; substrate; sugar donor): < 10 µM
C#Cc1c(F)ccc2cc(O)cc(-c3ncc4c(N5CC6CCC(C5)N6)nc(OC[C@@]56CCCN5C[C@H](F)C6)nc4c3F)c12 — dissociation rate constant (GTPase KRas, GppNHp-bound (KRAS, Homo sapiens, UniProt P01116, G12V); binding): 0.00776 ± 0.00065 s⁻¹
Cc1ccc(C(=O)Nc2ccc3ccccc3c2)o1 — reversal potential (Otop1 (Mus musculus, UniProt Q80VM9); proton current, voltage ramp patch-clamp; 10 µM, K+ bath cation): 57 mV
OC[C@H]1O[C@@H](Oc2cc3c(O)cc(O)cc3[o+]c2-c2cc(O)c(O)c(O)c2)[C@H](O)[C@@H](O)[C@@H]1O — binding enthalpy change (ALB; van't Hoff analysis; concentration not given): -29.4 kJ/mol
